Results of several laboratories.
Values joined by “and” are separate records of one study, mostly repeats; a detail may differ. ≈ marks a conversion by molar mass, not a printed value.

Cc1ccc(Nc2n[nH]c3nc(-c4cccc(F)c4)nc(N)c23)cc1  IC50 (Human rhinovirus 8; cytopathic effect, inhibitor; HeLa): 7.48 µM
C=C(NC(=O)c1csc(-c2nc3c(cc2O)-c2nc(cs2)C(=O)NC(C(C)O)C(=O)NC(=C(C)OC)c2nc(cs2)C(=O)NC2c4nc(cs4)C(=O)NC(COC(=O)c4c5c6c(cccc6n4O)COC(=O)C(OC4CC(C)(O)C(N(C)C)C(C)O4)C2OC5)c2nc-3cs2)n1)C(N)=O (centres unmarked)  lung bacterial load (Streptococcus pneumoniae; -25, immunocompromised mice, lung infection; 2 mg/kg/day, twice daily, 24 h post-dose): 4.03 log CFU/g
COc1ccc(Nc2n[nH]c3nc(-c4ccccc4)nc(N)c23)cc1OC  IC50 (Human rhinovirus 8; cytopathic effect, inhibitor; HeLa): 12.4 µM
C[C@@H]1C(=O)O[C@@H](C)/C=C/C=C\[C@@H](C)[C@@H]2C=C[C@@H]3C[C@@]4(C)O[C@H]4[C@@H](C)[C@H]3[C@@H]2C(=O)C(Cl)(Cl)C1=O  MIC50 (Staphylococcus aureus; MSSA and MRSA clinical isolates; 180 isolates): 0.05 µg/mL (≈ 0.101 µM)
C#CCNC(=O)C1(O/N=C(\C(=O)N[C@@H]2C(=O)N(OS(=O)(=O)O)C2(C)C)c2csc(N)n2)CC1  MIC (Enterobacter cloacae; agar dilution; ATCC 43560 susceptible): 1 µg/mL (≈ 2 µM)
COC1C=COC2(C)Oc3c(C)c(O)c4c(c3C2=O)C2=NC3(CCN(CC(C)C)CC3)NC2=C(NC(=O)C(C)=CC=CC(C)C(O)C(C)C(O)C(C)C(OC(=O)c2cncnc2)C1C)C4=O (centres unmarked)  MBC (Mycobacteroides abscessus; ATCC 19977, caseum surrogate; 5 d, non-replicating): 0.7 µM (≈ 0.638 µg/mL)
CC(=O)OC[C@H]1O[C@@H](Sc2sc(C(=O)c3ccc(C)cc3)c(N)c2-c2nc3ccccc3s2)[C@H](OC(C)=O)[C@@H](OC(C)=O)[C@H]1OC(C)=O  viral titre reduction (human alphaherpesvirus 1; plaque reduction; non-toxic concentration): 80%
Cc1cccc2c1N(C(=O)n1ccnn1)CC2  germination rate (Arabidopsis thaliana; kai2 mutant, seeds; 1 µM): 21.7% and 30% and 34.8% and 25.8% and 16.3% and 16%
CCc1nc2ccccn2c1C(=O)NCc1ccc2oc(-c3ccc(OC(F)(F)F)cc3)nc2c1  MIC90 (Mycobacteroides abscessus; RFP fluorescence; ATCC 19977, RFP reporter): > 100 µM
Cc1ccc(Nc2n[nH]c3nc(-c4ccc(F)cc4)nc(N)c23)cc1  IC50 (Human rhinovirus 8; cytopathic effect, inhibitor; HeLa): 26.3 µM
CCCOC(=O)N1c2cc(CNC)ccc2[C@H](NC(=O)C(=O)Nc2ccc(Cl)c(F)c2)[C@H]1CNC(=N)N  IC80 (HIV-1; pseudovirus infection, Env pseudovirus neutralisation; TZM-bl, clade B transmitted/founder): 207 nM
Cc1cccc(Nc2n[nH]c3nc(-c4ccccc4)nc(N)c23)c1  IC50 (Human rhinovirus 8; cytopathic effect, inhibitor; HeLa): 2.21 µM
CC1CC2(N=CCS2)C2(O)OC3CC4(C)C(CC3OC2O1)CC1OC12C4C(O)C(=O)C1(C)C(C3=CC(=O)OC3)CCC12O (centres unmarked)  time to adulthood (Oncopeltus fasciatus; diet, concentration not given): 24.1 days
CC1(C)C(NC(=O)C(=NOC2(C(=O)O)CC2)c2csc(N)n2)C(=O)N1OS(=O)(=O)O (centres unmarked)  MIC (Enterobacter cloacae; agar dilution; ATCC 43560, susceptible): 0.06 µg/mL (≈ 0.129 µM)
CCc1nc2ccc(C(F)(F)F)cn2c1C(=O)NCc1ccc2oc(-c3ccc(Cl)cc3)nc2c1  MIC90 (Mycobacteroides abscessus; RFP fluorescence; ATCC 19977, RFP reporter): > 100 µM
Nc1nc(-c2ccccc2)nc2[nH]nc(Nc3cccc(C(F)(F)F)c3)c12  IC50 (Human rhinovirus 8; cytopathic effect, inhibitor; HeLa): 16.2 µM
CC(=O)O[C@@H]1[C@@H](OC(C)=O)[C@H](Sc2sc(C(=O)c3ccc(C)cc3)c(N)c2-c2nc3ccccc3s2)OC[C@H]1OC(C)=O  viral titre reduction (human alphaherpesvirus 1; plaque reduction; non-toxic concentration): 10%
Cc1c(CN(C)C(=O)/C=C/c2cnc3c(c2)CC(N)C(=O)N3)oc2ccccc12 (centres unmarked)  MIC (Escherichia coli; broth microdilution; AR-0493): 4 µg/mL (≈ 10.2 µM)
COc1cc(C(=O)O)ccc1NC(=O)c1ccc(NC(=O)c2ccc(NC(=O)[C@H](Cc3c[nH]nn3)NC(=O)c3ccc(NC(=O)/C(C)=C/c4ccc(O)cc4)cc3)cc2)c(OC)c1O  MIC (Enterococcus faecium; broth microdilution; ciprofloxacin-resistant): 16 µg/mL (≈ 18.4 µM)
Cc1nc2ccc(C(F)(F)F)cn2c1C(=O)NCc1ccc2oc(-c3ccc(OC(F)(F)F)cc3)nc2c1  MIC90 (Mycobacteroides abscessus; RFP fluorescence; ATCC 19977, RFP reporter): > 100 µM
Cc1cc(C(=O)Nc2nc3cccc(C)c3n2[C@H]2CCCCN(C(=O)/C=C/CN(C)C)C2)ccn1  proliferation (Trypanosoma brucei brucei; Lister 427; 16.67 µM, 0 h, kill kinetics): 100%
Cc1nc2cc(Br)ccn2c1C(=O)NCc1ccc2oc(-c3ccc(OC(F)(F)F)cc3)nc2c1  MIC90 (Mycobacteroides abscessus; RFP fluorescence; ATCC 19977, RFP reporter): > 25 µM
CC(=O)OC[C@H]1O[C@@H](Sc2sc(C(=O)c3ccc(Cl)cc3)c(N)c2-c2nc3ccccc3s2)[C@H](OC(C)=O)[C@@H](OC(C)=O)[C@@H]1OC(C)=O  viral titre reduction (human alphaherpesvirus 1; plaque reduction; non-toxic concentration): 10%
c1ccc(CN2CCOCCOCCN(CCCCCCCCCCCCN3CCOCCOCCN(CCCCCCCCCCCCN4CCOCCOCCN(Cc5ccccc5)CCOCCOCC4)CCOCCOCC3)CCOCCOCC2)cc1  FIC index (Klebsiella pneumoniae; ATCC BAA-2146; half MIC, together with: ciprofloxacin): 0.75
Cc1nc2ccc(Br)cn2c1C(=O)NCc1ccc2oc(-c3ccc(OC(F)(F)F)cc3)nc2c1  MIC90 (Mycobacteroides abscessus; RFP fluorescence; ATCC 19977, RFP reporter): > 50 µM
CC(C)(C)NCC(SS(=O)(=O)O)c1ccccc1 (centres unmarked)  liver weight decrease (Schistosoma mansoni; perfusion day 44; infected Swiss Webster mice; 600 mg/kg single dose, 1056 h, dosed day 15 post-infection; relative to: vehicle control): 40%
OC(Cn1cncn1)(Cn1cc(-[c-]2cccc2)nn1)c1ccc(F)cc1F.[Cl-].[Co+3].c1cc[cH-]c1 (racemic)  motility inhibition (Trichuris muris; Worminator; adult males and females; 100 µM, day 0): 37%
Nc1nc(-c2cccc(C(F)(F)F)c2)nc2[nH]nc(Nc3ccccc3)c12  IC50 (Human rhinovirus 8; cytopathic effect, inhibitor; HeLa): 4.32 µM
CCc1nc2ccc(OC(F)(F)F)cn2c1C(=O)NCc1ccc2oc(-c3ccc(Cl)cc3)nc2c1  MIC90 (Mycobacteroides abscessus; RFP fluorescence; ATCC 19977, RFP reporter): > 25 µM
O=[N+]([O-])c1cc(Br)cc([N+](=O)[O-])c1NS(=O)(=O)c1ccc(Br)cc1  germination rate (Arabidopsis thaliana wild type; 20 µM): > 90%
CN(C)c1ccc(Nc2n[nH]c3nc(-c4ccccc4)nc(N)c23)cc1  IC50 (Human rhinovirus 8; cytopathic effect, inhibitor; HeLa): 36.5 µM
CCc1nc2cc(Br)ccn2c1C(=O)NCc1ccc2oc(-c3ccc(OC(F)(F)F)cc3)nc2c1  MIC90 (Mycobacteroides abscessus; RFP fluorescence; ATCC 19977, RFP reporter): > 25 µM
Nc1nc(-c2ccncc2)nc2[nH]nc(Nc3ccc(F)cc3)c12  IC50 (Human rhinovirus 8; cytopathic effect, inhibitor; HeLa): 33.9 µM
CC1(C)[C@H](NC(=O)/C(=N\OCC(=O)N2CCC(C(=O)O)CC2)c2csc(N)n2)C(=O)N1OS(=O)(=O)O  MIC (Enterobacter cloacae; agar dilution; CDC 1000654): > 64 µg/mL
Fc1ccc2c(c1)c1nc3ccc(Br)cc3c-1cn2Cc1cn(-c2ccccc2I)nn1  fold change (Giardia duodenalis; UHPLC-Q-TOF-MS metabolomics, item: SM(d18:1/16:0); trophozoites; IC50 concentration, 0.2357 h, RT 14.14 min, m/z 740.5; relative to: 0.25% DMSO vehicle): 1.74

Excerpt of the above:
CN(C)c1ccc(Nc2n[nH]c3nc(-c4ccccc4)nc(N)c23)cc1  IC50 (Human rhinovirus 8; cytopathic effect, inhibitor; HeLa): 36.5 µM
Cc1cc(C(=O)Nc2nc3cccc(C)c3n2[C@H]2CCCCN(C(=O)/C=C/CN(C)C)C2)ccn1  proliferation (Trypanosoma brucei brucei; Lister 427; 16.67 µM, 0 h, kill kinetics): 100%
CC1CC2(N=CCS2)C2(O)OC3CC4(C)C(CC3OC2O1)CC1OC12C4C(O)C(=O)C1(C)C(C3=CC(=O)OC3)CCC12O (centres unmarked)  time to adulthood (Oncopeltus fasciatus; diet, concentration not given): 24.1 days
